Measurements gathered from unrelated publications.
Each numbered part is a random draw from the data of one study; scales do not carry over between parts. Positions count from the first letter of the parent shown.

Block 1
Target: Sal-like protein 4, full length isoform B (SALL4, Homo sapiens, UniProt Q9UJQ4-2, residues 1-616)
Technique: universal PBM
Form: double-stranded DNA, one strand shown
Medium: in vitro
Tested at: not given
Notes: 8-mer, flanks averaged, mean of replicates
Direction: higher = stronger binding
Construct (chain): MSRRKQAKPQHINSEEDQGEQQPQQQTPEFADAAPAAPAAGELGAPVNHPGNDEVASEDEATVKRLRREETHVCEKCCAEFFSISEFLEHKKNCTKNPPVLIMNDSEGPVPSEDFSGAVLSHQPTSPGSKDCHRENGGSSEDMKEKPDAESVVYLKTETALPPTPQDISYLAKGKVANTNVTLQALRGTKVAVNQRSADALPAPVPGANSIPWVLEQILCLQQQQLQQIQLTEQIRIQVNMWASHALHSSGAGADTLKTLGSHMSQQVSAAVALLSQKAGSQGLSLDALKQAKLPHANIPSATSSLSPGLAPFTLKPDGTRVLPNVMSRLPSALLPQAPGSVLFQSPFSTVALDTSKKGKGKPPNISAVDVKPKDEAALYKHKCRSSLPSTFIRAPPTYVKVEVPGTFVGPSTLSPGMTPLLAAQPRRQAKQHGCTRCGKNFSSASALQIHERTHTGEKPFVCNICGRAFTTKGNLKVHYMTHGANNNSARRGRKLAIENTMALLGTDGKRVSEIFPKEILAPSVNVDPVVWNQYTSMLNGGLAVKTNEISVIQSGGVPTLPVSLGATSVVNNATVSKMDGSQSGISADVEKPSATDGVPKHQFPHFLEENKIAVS
| Sequence | E-score |
| --- | --- |
| CGATCCCA | -0.118 |
| AGATGTTA | 0.138 |
| AAGAAGTC | 0.128 |
| CATTAGAC | 0.0524 |
| CTCAGGAG | -0.246 |
| GGGTCTAA | -0.0969 |
| ATGTCTCA | 0.132 |
| CAGGCTGG | -0.29 |
| AGTGGCTG | -0.227 |
| ATTTCGCC | 0.0457 |
| AAGGCGAC | -0.169 |
| ATAATCAG | 0.271 |
| CCGCGCAA | -0.0876 |
| AACGTGTG | 0.143 |
| ACAGTTGC | 0.0335 |
| AGGACGCG | -0.153 |
| AATGTTTA | 0.273 |
| AGTTGGAT | 0.179 |
| AATCGAGG | -0.173 |
| ACAGTCGG | -0.125 |
| ATCTGGCG | -0.0423 |
| AGTCCTTA | 0.133 |
| GAGCTCAA | -0.161 |
| CCGACCCG | -0.33 |
| AAACCTGT | 0.0901 |

Block 2
Target: RING finger protein unkempt homolog, zinc fingers 1-6, GST-SBP tag (UNK, Homo sapiens, UniProt Q9C0B0, residues 30-357)
UniProt Q9C0B0, sequence (30-357, looked up): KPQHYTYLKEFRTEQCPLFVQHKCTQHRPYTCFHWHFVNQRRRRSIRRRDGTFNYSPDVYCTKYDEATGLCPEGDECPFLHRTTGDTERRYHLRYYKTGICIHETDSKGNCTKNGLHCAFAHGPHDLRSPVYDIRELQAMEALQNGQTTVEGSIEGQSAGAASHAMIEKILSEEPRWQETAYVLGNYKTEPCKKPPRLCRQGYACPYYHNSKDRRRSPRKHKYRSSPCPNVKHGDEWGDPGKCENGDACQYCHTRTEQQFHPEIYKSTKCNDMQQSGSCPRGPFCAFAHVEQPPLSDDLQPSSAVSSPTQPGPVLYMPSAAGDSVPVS
Technique: RNA Bind-n-Seq
Form: RNA
Medium: in vitro
Tested at: not given
Notes: RNA with constant flanks, human and mouse sites, ends assumed
Reference: input RNA pool
Direction: higher = stronger binding
Shared flanks, not repeated: GGGAGUUCUACAGUCCGACGAUC … CAACAGAGGAUUGAGCAUCA
| Sequence | bound/input enrichment [ratio] |
| --- | --- |
| CGAGUGUUAAGGGUUAGGGUGGUUGUGCAAGCAAAUUUUUAAGUUGUAUUUUUAUAAACUUUCAGUUAAGGAUUAUUAUUAACAACCAGGUCAACAUGAUAAGCCUACAUUUAUAUAGAG | 0.757 |
| GGCUUCGAGCUUCCUCAAGGGCCCCUGGGAACAUCCUUUAAAGGAAAAUAUGGUUGCGUAGACUACUGGGUGAAGGCUUUUCUCGAUCGCCCCAGCCAGCCAACUCAAGAGGCAAAGAAA | 0.11 |
| CAUGUUAAAGAGCAUCACUUUGGGUCCUCAGGAAUGACAUUACAUGAACGCUUUACUAAAUACCUAAAGAGAGGAACUGAGCAGGAGGCAGCCAAAAACAAGAAAAGCCCAGAGAUACAC | 0.407 |
| GAAGAUGGAGAAGAUCAACCAAAGCAAGUUUAUGUAGACAAAUUGGCUGAAUUAAAAAGUUUAGGUCAACCCAUUAAGACACGGUUCCAGGAAUCUGAAGAAAGACCAAAAUUAUUUGAA | 0.323 |
| UCCAAAAAGAUCCAGCAGAUCCAUGUGGUUUCCCAGUUUAAGAUUCUGGUCAGCUUGUUAGAAAACAACAUUUAUGUCCAUGACUUACUGACAUUUCAACAAAUCACUACAGUCUCAAAG | 0.0898 |
| UGCUGAGGAGGCGGAUUAGGGGGGCGCGGAGUCUCUUCCCUUGAGUGCAUAGGUCCCGGUUGGUAGAGGGUUUGAGUCCGCAUCGCCACAGCUGAAGGCUGCGAGGGACUAAGAGCAGAA | 0.0747 |
| ACAUUUAUGUCGCCAGGCUUUCCAGUCAAUAACAGCAGCAGUGAUAAUGCUCAGAACUUUAGUUUUAAAACAAACUCUGGAUUUGCUGCUGCCUCUUCUGGAAGCCCUGCUGGUUUUGGG | 0.155 |
| CCUCUGCUUCCGCACUCCCCUGCCUGCCUUUUGGCAACAUUUUUUUUCUUAUUUUUUUUUAAUAGUGUAUAUUUUUUUUCUUUUUCUUUUUUUCUUUUUUUUUUUUAAGAAAAAAACAAA | 112 |
| UCUCCUGUGAUCACAUCUUGUCUCGGCUGUAGGAAUCAACAGAAGGAGACGUCCUCUACAUAAAAGCUCCAUGUGAAAAGCUACUCCUAGUCUUAACAUUUGCAGUCCUUGUGUCACUGU | 0.298 |
| UUUCAUAAGCUAAAUUGUAUGUAUAAAACAUUUGCAGUGUUUCAGACACUGUUGAACAAAAAUGUAAUUGGUAAGUAUGUAUCCAAACAGGCAUGGGGUUUCCUGAUACAUUAUGUGUUU | 0.341 |
| AUAAUGUUUGAAUCCUUCAAUGUUCCAGGCUUGUACAUUGCUGUGCAGGCUGUUCUUGCCUUAGCUGCAUCCUGGACCUCAAGACAAGUAGGAGAGCGGACGCUGACGGGUACAGUAAUA | 0.266 |

Block 3
Target: Ras GTPase-activating protein-binding protein 1, full length (G3BP1, Homo sapiens, UniProt Q13283)
UniProt Q13283, sequence (whole entry, looked up): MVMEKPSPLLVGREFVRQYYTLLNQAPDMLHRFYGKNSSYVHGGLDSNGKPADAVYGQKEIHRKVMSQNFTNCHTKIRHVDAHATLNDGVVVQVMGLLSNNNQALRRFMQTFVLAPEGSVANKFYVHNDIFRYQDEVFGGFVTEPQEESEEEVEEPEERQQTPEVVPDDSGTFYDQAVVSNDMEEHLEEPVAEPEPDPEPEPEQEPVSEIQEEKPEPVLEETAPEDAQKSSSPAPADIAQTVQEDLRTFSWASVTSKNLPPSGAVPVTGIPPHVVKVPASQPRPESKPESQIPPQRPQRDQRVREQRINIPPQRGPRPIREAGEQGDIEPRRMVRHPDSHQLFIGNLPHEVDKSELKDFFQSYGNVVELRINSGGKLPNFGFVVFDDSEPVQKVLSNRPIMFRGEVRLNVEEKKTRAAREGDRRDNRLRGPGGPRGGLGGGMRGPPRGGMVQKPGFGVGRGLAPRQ
Technique: RNA Bind-n-Seq
Form: RNA
Medium: in vitro
Tested at: 200 nM
Notes: whole 134-nt RNA, ends assumed
With: 150 mM LiCl
Reference: input library
Direction: higher = stronger binding
Library: 7-deaza-guanosine replaces G
Shared flanks, not repeated: GGGAGUUCUACAGUCCGACGAUC … UGGAAUUCUCGGGUGUCAAGG
| Sequence | log2 enrichment |
| --- | --- |
| AGUCCUGUGCUACACAUCGUAUGUACCGAAUCGGGGUUUGGGGUGGGGAAAAAGGGGAAAGUAUUAUGUUACGCCGUUCGGAUCUGCACU | 0.324 |
| UAUUAAUUUGAUAUAUUUAUUAUGAUUUGUAGAGGACGUCGGUGAUGAAGGAGAAGAAGAAAAAGAAUUCAUUUCCUAUAACAUCAACAU | -3.86 |
| GUCCUGUGCUACACAUCGUAUGUACCGAAUCAAACCCCCCCAAAUUUAAACCCCCAAAAAAGUAUUAUGUUACGCCGUUCGGAUCUGCAC | 1.03 |
| AAGUCCUGUGCUACACAUCGUAUGUACCGAAUCGGGAAAGGGUUUUUGGGUUUGGGAAAGUAUUAUGUUACGCCGUUCGGAUCUGCACUU | -1.82 |
| GUGAAUCAAAAACUCUGGUUUUAAGCAACCUCUCCUACAGUGCAACAGAAGAAACUCUUCAGGAAGUAUUUGAGAAAGCAACUUUUAUCA | 1.26 |
| AGUCCUGUGCUACACAUCGUAUGUACCGAAUCGGCCCCGGGCCCCGGGGCCCCGGGGAAAGUAUUAUGUUACGCCGUUCGGAUCUGCACU | -1.92 |
| CACAGACAACACGCACCCACACAGACACAGAGGGAAGGGGUUGGGAUGGGGACAGCGUGCACAGCAGGGCGGGGUAGGACCCCAGCCCCU | -0.737 |
| AGUCCUGUGCUACACAUCGUAUGUACCGAAUCGGGGAAAGGGGAGGGGUUUUUGGGGAAAGUAUUAUGUUACGCCGUUCGGAUCUGCACU | 0.0292 |
| UCCUCAAGUCCUGUGCUACACAUCGUAUGUACCGAAUCGGAAAGGAGGAGGAAAGUAUUAUGUUACGCCGUUCGGAUCUGCACUUCCAGC | -1.22 |
| CAAGUCCUGUGCUACACAUCGUAUGUACCGAAUCGGGAAAGGGGAAAGGGAAAGGAAAGUAUUAUGUUACGCCGUUCGGAUCUGCACUUC | -0.176 |
| AGUCCUGUGCUACACAUCGUAUGUACCGAAUCGGGGCCCCCGGGCCCCCGGCCCCCGGAAAGUAUUAUGUUACGCCGUUCGGAUCUGCAC | -1.76 |

Block 4
Target: CCNB1, cyclin fold, Cln2 fusion (human)
Technique: yeast growth competition, sequencing
Medium: yeast
Notes: strong parent motif
Reference: not given
Direction: higher = stronger binding
Starting sequence: PKN2 docking peptide (human); VSAVRKLDFSDTM
| Substitution | normalised enrichment score |
| --- | --- |
| VSAVRKHDFSDTM [L7H] | 0.183 |
| VSAVRKLDFSDAM [T12A] | 4 |
| VSAVRFLDFSDTM [K6F] | 1.96 |
| VSAIRKLDFSDTM [V4I] | 3.2 |
| VSAVEKLDFSDTM [R5E] | 0.385 |
| VSAVRPLDFSDTM [K6P] | -0.338 |
| VSAVRKADFSDTM [L7A] | 0.364 |
| VSAVRKGDFSDTM [L7G] | -0.0237 |
| VSAVRGLDFSDTM [K6G] | 0.71 |
| VSAVRKLDFSDVM [T12V] | 3.23 |
| VSAARKLDFSDTM [V4A] | 1.14 |
| VSAVRKQDFSDTM [L7Q] | 0.179 |
| VSADRKLDFSDTM [V4D] | 0.185 |
| VSAVRKLAFSDTM [D8A] | 1.13 |
| VSAVRWLDFSDTM [K6W] | 1.28 |

For quick reference, copied from above (block 1):
| Sequence | E-score |
| --- | --- |
| AGGACGCG | -0.153 |
| ATCTGGCG | -0.0423 |
| AGTTGGAT | 0.179 |
| CGATCCCA | -0.118 |
| ATAATCAG | 0.271 |
| CAGGCTGG | -0.29 |
| AAACCTGT | 0.0901 |
| AGTGGCTG | -0.227 |
| CATTAGAC | 0.0524 |
| AGATGTTA | 0.138 |
